Experimental data pooled from the literature.
Parts stem from different laboratories: compare values within a part only. Changes are numbered by the printed parent chain.
Chain of UniProt P42336 (whole entry, unmodified, looked up): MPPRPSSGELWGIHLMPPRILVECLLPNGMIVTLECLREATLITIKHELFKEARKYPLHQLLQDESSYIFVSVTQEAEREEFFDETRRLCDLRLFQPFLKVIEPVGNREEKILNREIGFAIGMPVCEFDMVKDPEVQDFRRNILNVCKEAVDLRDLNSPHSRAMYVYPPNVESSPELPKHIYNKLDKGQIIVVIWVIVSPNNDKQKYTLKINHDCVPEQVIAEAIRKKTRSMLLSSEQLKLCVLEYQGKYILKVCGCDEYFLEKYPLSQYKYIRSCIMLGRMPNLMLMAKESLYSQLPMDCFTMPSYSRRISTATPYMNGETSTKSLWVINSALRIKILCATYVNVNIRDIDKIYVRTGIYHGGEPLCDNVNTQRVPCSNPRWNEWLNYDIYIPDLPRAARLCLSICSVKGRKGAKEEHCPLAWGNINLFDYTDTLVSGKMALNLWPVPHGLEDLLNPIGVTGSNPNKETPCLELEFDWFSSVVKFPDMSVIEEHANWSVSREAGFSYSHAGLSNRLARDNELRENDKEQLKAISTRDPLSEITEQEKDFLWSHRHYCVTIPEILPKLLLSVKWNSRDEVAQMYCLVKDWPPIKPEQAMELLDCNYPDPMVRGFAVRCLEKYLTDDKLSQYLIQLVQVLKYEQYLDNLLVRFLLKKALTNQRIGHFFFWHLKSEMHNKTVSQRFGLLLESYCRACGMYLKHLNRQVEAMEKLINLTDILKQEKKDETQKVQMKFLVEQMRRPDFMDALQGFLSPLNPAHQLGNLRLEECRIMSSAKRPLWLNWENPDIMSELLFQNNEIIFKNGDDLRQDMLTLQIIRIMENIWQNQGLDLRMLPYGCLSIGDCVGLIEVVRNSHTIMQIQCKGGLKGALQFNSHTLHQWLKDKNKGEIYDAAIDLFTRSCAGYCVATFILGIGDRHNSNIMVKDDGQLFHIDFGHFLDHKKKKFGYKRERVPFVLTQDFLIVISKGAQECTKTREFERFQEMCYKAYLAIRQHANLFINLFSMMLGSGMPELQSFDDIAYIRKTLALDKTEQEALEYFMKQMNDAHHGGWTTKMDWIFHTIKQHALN
Chain of UniProt P22607 (whole entry, looked up): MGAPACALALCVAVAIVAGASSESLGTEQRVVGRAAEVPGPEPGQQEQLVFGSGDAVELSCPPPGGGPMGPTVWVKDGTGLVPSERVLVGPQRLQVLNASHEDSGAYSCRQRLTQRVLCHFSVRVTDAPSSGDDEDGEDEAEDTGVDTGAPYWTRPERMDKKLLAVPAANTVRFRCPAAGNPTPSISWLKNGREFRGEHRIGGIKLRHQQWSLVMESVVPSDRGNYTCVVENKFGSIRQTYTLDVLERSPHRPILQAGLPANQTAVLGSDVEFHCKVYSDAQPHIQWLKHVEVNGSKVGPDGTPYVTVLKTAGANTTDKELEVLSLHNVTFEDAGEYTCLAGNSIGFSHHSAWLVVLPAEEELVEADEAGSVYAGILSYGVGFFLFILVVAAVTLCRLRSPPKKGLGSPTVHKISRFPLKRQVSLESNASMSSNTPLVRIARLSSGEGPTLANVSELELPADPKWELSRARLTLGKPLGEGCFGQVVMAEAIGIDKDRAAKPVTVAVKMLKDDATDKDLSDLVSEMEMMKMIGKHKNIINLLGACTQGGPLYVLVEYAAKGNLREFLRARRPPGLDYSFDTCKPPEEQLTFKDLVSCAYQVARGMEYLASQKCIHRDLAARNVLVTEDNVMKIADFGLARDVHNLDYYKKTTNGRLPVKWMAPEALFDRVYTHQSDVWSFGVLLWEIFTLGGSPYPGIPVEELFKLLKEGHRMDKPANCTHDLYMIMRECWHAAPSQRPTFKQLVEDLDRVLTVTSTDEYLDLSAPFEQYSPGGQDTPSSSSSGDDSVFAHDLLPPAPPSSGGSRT
Chain of UniProt P37023 (whole entry, looked up): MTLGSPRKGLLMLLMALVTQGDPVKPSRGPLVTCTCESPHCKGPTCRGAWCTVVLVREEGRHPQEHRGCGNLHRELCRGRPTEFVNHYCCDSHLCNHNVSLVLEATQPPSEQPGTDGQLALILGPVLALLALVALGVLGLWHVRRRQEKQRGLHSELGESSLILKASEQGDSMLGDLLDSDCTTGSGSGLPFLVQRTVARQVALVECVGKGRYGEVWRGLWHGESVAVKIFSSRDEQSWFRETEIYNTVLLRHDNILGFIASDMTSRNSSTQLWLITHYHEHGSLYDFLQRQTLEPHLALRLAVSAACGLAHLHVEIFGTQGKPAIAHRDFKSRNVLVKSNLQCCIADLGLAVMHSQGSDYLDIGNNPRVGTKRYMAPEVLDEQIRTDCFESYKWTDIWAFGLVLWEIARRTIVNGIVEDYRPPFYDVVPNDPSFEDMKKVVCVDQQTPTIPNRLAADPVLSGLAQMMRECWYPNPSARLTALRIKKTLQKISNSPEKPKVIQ

Sample 1
Target: ABI1, truncated, D143A, DHFR fusion (Arabidopsis thaliana)
Method: DHFR PCA, deep sequencing
Sample: yeast
Setting: methotrexate growth selection, single substitutions
Added: (+)-ABA 200 µM
Reference: wild-type fitted maximum
Direction: higher = stronger binding
Starting sequence: PYL1, truncated, DHFR fusion (Arabidopsis thaliana); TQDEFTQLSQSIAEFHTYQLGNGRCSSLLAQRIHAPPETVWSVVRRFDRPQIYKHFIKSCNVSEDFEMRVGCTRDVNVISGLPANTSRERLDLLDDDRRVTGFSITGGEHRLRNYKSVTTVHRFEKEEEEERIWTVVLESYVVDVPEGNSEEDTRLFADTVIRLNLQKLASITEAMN
| Change | relative binding score [%] |
| --- | --- |
| S26Y | 91.2 |
| T86W | 99.3 |
| R111M | 79.4 |
| D159N | 89.8 |
| H34F | 90.9 |
| E89S | 3.42 |
| L28F | 90.4 |
| H34E | 99.7 |

Sample 2
Target: Phosphate system positive regulatory protein PHO4, full length, GST-tagged (PHO4, Saccharomyces cerevisiae, UniProt P07270, residues 1-312)
Method: competition protein-binding microarray
Form: double-stranded DNA, one strand shown
Sample: in vitro
Concentration: 2 µM
Setting: whole 60-bp probe, lowest competitor level
Added: Cbf1 competitor, 0.05 µM
Direction: higher = stronger binding
Constant ends, left off below: … GTCTTGATTCGCTTGACGCTGCTG
Construct (chain): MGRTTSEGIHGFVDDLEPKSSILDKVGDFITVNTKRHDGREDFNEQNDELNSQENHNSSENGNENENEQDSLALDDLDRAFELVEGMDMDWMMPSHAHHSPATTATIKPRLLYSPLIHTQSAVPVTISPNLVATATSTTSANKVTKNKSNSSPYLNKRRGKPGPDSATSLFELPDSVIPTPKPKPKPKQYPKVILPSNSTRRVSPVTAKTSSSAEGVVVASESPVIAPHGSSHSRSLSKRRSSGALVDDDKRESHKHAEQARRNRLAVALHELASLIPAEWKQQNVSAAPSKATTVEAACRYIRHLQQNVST
| Strand | fluorescence intensity [a.u.] |
| --- | --- |
| CTTCTGTAAATTTGGCCTGTGGGTGGACGCGCCCCG | 4340 |
| GTACGAAGCAGGCTGCACATGTGTGGGTTTACCTTC | 11200 |
| AGAGCGTTCGCGTTTCTCGTGCCGAGTGCTTTTAAC | 7070 |
| CTGGCTCATATGCCACACATGTCAGTAGGTTCATAG | 10500 |
| AAGATTCCGGAGTCCCTCGTGAGGAAATTTTTATTA | 6430 |
| GTCTTGTCTCATTTTCACGTGCACTTCCCCACTTCA | 13600 |
| GGCCACCTTGATCTGCATGTTTCTTCTAGGTGAGCT | 5270 |
| GAACCAGAGATGTTCCACGTGAAATATTACCAACCA | 13600 |

Sample 3
Target: Non-receptor tyrosine-protein kinase TYK2 (TYK2, Homo sapiens, UniProt P29597)
Chain of UniProt P29597 (whole entry, looked up): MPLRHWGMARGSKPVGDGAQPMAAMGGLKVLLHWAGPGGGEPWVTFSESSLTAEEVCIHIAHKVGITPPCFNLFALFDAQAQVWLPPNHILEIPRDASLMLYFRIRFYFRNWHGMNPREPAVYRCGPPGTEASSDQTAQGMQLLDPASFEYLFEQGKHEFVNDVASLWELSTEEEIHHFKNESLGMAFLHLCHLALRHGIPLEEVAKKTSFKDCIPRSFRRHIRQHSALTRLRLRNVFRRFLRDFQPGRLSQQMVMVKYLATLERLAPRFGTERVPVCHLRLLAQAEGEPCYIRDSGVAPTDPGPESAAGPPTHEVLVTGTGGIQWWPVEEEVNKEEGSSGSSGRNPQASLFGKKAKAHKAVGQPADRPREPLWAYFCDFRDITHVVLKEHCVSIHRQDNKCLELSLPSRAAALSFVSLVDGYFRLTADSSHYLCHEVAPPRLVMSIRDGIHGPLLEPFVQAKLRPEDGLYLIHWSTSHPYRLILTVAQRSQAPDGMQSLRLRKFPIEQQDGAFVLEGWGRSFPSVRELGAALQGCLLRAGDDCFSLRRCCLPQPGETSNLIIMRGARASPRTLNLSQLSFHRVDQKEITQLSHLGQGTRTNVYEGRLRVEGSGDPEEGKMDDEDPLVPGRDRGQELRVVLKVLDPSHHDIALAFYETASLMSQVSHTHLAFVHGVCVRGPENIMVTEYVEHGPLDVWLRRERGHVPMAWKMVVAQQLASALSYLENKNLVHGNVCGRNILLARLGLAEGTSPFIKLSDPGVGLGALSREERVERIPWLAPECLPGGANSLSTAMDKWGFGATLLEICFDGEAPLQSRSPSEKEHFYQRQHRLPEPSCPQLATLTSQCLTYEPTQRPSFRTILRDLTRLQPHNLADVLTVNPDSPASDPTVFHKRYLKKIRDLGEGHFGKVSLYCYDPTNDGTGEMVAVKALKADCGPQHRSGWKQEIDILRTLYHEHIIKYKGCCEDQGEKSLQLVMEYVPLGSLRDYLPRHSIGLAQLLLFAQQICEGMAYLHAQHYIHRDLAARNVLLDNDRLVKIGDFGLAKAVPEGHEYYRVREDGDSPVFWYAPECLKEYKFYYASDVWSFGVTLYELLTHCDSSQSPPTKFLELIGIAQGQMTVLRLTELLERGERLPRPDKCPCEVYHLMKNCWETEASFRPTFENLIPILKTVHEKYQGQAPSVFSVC
Observed: enzyme activity
Action: inhibitor
Concentration: 0.5 µM
Reference: control
| Compound | remaining activity [%] |
| --- | --- |
| CNc1cc2c(Nc3cccc(Br)c3)ncnc2cn1 | 80.8 |
| O=C(O)/C=C/c1cc(Br)c(Br)c(Br)c1Br | 110 |
| COc1cc2c(N3CCN(C(=O)Nc4ccc(OC(C)C)cc4)CC3)ncnc2cc1OCCCN1CCCCC1 | 97.9 |

Sample 4
SMILES: Cc1nc(C2CCN(C(=O)c3ccc(OC(F)(F)F)cc3N)CC2)c2ncc(N3CCN(C)CC3)cc2n1
Observed: cell-free assay
Method: competition with immobilised ligand
Concentration: 1 µM
| target | remaining binding [%] |
| --- | --- |
| FGFR3 (Homo sapiens, UniProt P22607) | 100 |
| PIK3CA (Homo sapiens, UniProt P42336, M1043I) | 96 |
| ACVRL1 (Homo sapiens, UniProt P37023) | 91 |

Repeated from above (sample 2):
| Strand | fluorescence intensity [a.u.] |
| --- | --- |
| GTACGAAGCAGGCTGCACATGTGTGGGTTTACCTTC | 11200 |
| AAGATTCCGGAGTCCCTCGTGAGGAAATTTTTATTA | 6430 |
| GTCTTGTCTCATTTTCACGTGCACTTCCCCACTTCA | 13600 |
| CTGGCTCATATGCCACACATGTCAGTAGGTTCATAG | 10500 |
